Experimental data collected from several papers.
Lines come from different studies, so protocols differ. “And” joins repeats or separate records; there may be more than shown. ± gives the spread as reported.
ABCB1: ATP-dependent translocase ABCB1 (ABCB1, Homo sapiens, UniProt P08183)
Chain of UniProt P08183 (whole entry, looked up): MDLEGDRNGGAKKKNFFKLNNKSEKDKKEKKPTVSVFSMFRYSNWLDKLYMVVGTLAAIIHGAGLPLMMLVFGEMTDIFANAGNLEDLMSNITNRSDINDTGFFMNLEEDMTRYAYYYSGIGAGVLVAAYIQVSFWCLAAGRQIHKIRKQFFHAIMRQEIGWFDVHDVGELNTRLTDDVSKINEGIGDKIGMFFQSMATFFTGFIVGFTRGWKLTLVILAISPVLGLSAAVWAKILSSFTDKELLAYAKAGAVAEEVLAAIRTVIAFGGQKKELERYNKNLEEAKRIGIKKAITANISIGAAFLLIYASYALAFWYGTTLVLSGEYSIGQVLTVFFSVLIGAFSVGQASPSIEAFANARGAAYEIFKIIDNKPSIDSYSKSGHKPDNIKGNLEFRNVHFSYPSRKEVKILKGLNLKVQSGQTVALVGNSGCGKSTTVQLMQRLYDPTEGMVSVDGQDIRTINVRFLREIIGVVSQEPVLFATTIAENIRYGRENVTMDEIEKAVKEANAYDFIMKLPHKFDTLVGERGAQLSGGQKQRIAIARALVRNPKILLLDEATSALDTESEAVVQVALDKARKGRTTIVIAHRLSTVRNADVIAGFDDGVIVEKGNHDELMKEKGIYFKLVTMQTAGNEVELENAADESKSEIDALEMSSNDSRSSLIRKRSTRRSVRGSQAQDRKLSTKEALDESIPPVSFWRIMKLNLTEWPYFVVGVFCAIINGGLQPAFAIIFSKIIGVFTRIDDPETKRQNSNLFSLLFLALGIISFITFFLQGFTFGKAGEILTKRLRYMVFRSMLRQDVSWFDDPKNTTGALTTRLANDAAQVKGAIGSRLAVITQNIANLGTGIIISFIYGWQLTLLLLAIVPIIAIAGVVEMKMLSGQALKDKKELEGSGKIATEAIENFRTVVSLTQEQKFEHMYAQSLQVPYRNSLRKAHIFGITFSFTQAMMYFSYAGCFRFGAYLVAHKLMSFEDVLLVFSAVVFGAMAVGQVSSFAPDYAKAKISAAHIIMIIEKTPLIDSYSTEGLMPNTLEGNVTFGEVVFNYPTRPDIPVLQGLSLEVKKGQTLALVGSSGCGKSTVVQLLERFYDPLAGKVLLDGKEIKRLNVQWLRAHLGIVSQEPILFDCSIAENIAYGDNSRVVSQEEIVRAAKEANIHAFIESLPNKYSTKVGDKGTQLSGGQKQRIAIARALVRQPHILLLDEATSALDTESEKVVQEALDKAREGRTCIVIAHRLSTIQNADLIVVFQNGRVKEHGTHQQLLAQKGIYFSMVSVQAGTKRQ
ALB: Albumin (ALB, Homo sapiens, UniProt P02768)
Chain of UniProt P11712 (whole entry, looked up): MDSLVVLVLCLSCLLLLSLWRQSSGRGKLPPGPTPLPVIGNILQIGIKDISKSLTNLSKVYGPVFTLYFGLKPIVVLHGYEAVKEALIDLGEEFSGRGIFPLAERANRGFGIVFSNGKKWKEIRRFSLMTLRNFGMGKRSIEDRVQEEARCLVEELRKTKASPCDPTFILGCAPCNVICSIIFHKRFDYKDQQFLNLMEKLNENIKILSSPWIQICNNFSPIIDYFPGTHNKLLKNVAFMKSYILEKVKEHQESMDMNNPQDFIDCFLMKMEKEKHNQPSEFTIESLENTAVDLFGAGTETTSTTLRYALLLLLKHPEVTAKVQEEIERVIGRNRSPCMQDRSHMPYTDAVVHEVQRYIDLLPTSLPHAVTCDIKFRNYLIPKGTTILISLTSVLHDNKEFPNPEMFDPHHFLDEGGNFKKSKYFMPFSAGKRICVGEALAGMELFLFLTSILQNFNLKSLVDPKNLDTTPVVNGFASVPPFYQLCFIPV

Compound | target or system | test | test system | conditions | scale | quantity | value
CNc1nc(N)nc2c1ncn2[C@@H]1O[C@H](CO)[C@@H](O)[C@@]1(C)F | ABCB1 | bidirectional transport | LLC-PK1, human MDR1, transfected with | 10 µM |  | Papp A to B | 12.5 ± 0.7 ×10⁻⁶ cm/s
CN1CCN(c2ccc3[nH]c(-c4ccc5[nH]c(-c6ccc(OCCCCNC(=O)c7ccc8c(c7)C7(OC8=O)c8ccc(N(C)C)cc8[Si](C)(C)c8cc(N(C)C)ccc87)cc6)nc5c4)nc3c2)CC1 | ALB |  | PBS | 1 µM, 1 h, with: 25 mg/mL albumin |  | fluorescence quantum yield | 0.06 ± 0.001
C=CC(=O)Nc1cc(Nc2nccc(-c3cn(C)c4ccccc34)n2)c(OCC(F)(F)F)nc1N(C)CCN(C)C | CYP1A2 human | inducer | hepatocytes lot LTG | 0.1 µM | relative to: omeprazole 100 µM | induction relative to positive control | 2.02%
COC1CN([C@H]2CC[C@H]([C@@]3(C)Oc4c(Cl)cc(C(=O)NCc5c(SC)cc(C)[nH]c5=O)c(C)c4O3)CC2)C1 |  | RNA-seq, measured: PRSS23 mouse homolog | mouse, HT-1376 xenograft, whole blood | dose not given | relative to: vehicle | log2 fold change | 1.06
O=C(O)c1cccc(CN2CCCNCCNCCCNCC2)n1 | Pd(II) | potentiometry and UV spectrophotometry | aqueous 1.0 M KCl | 25 °C, Pd2+ + L to PdL |  | log overall stability constant | 38.4
C[C@@]1(F)[C@H](O)[C@@H](CO)O[C@H]1n1cnc2c(=O)[nH]c(N)nc21 | ABCB1 | bidirectional transport | LLC-PK1, human MDR1, transfected with | 10 µM |  | Papp B to A | 12.9 ± 0.6 ×10⁻⁶ cm/s
CN(C)c1ccc2c(c1)C(C)(C)c1cc(N(C)C)ccc1C21OC(=O)c2cc(C(=O)O)ccc21 | ALB | binding, fluorescence titration | PBS |  |  | Kd | 59 ± 10 µM
Cc1ncsc1-c1ccc(C(C)NC(=O)C2CC(O)CN2C(=O)C(NC(=O)CCCCCCCCCCN2CCCC(Nc3ncc(Cl)c(Nc4ccccc4S(=O)(=O)C(C)C)n3)C2)C(C)(C)C)cc1 (stereo not shown) | 22Rv1 | RNA-seq, measured: ZBTB24 mRNA |  | concentration not given | relative to: DMSO | log2 fold change | -1.06
C=CC(=O)Nc1cccc(Cn2ncc3cnc(Nc4cnn(CCOC)c4)nc32)c1 | MYLK human | binding, KINOMEscan |  | 100 nM | lower = stronger binding | percent of control | 100%
C/C(N)=N/C(=N\S(=O)(=O)c1ccc(C(F)(F)F)cc1)N1C[C@H](c2ccccc2)C(c2ccc(Cl)cc2)=N1 | ABCB1 |  | MDCK-MDR1 monolayers | 5 µM, 120 min, pH 7.4 |  | Papp A-B | 0.12 ± 0.02 ×10⁻⁶ cm/s
CN1CCN(c2ccc3[nH]c(-c4ccc5[nH]c(-c6ccc(OCCCCNC(=O)c7ccc8c(c7)C(=O)OC87c8ccc(N(C)C)cc8[Si](C)(C)c8cc(N(C)C)ccc87)cc6)nc5c4)nc3c2)CC1 | ALB | binding, second site, fluorescence titration | PBS |  |  | Kd | > 1000 µM
CNC(=O)C1CCCN(C(=O)C2CC3CCC2N3C(=O)[C@@H]2C[C@@H](O)CN2C(=O)NCc2cccc(Cl)c2F)C1 (mixture of isomers) | Cytochrome P450 2C9 (CYP2C9, Homo sapiens, UniProt P11712) | preincubation with NADPH | human | 0.617 µM | relative to: negative control | remaining activity | 107% and 101% and 100%
C=C(NC(=O)c1csc(-c2nc3c(cc2O)-c2nc(cs2)C(=O)NC(C(C)O)C(=O)NC(=C(C)OC)c2nc(cs2)C(=O)NC2c4nc(cs4)C(=O)NC(COC(=O)c4c5c6c(cccc6n4O)COC(=O)C(OC4CC(C)(O)C(N(C)C)C(C)O4)C2OC5)c2nc-3cs2)n1)C(N)=O (stereo not shown) |  |  | cynomolgus monkey, plasma | intravenous, 3 mg/kg, single dose, infusion |  | Cmax | 16000 ng/mL

A few entries again:
Compound | target or system | test | test system | conditions | scale | quantity | value
CNC(=O)C1CCCN(C(=O)C2CC3CCC2N3C(=O)[C@@H]2C[C@@H](O)CN2C(=O)NCc2cccc(Cl)c2F)C1 (mixture of isomers) | Cytochrome P450 2C9 (CYP2C9, Homo sapiens, UniProt P11712) | preincubation with NADPH | human | 0.617 µM | relative to: negative control | remaining activity | 107% and 101% and 100%
